# Results collected from several papers.
# Every numbered part comes from another study and shows a few of its results, in no order. “And” joins repeats or separate records; there may be more than shown. pIC50: −log10 of the molar value.
# Chain of UniProt O14965 (whole entry, looked up): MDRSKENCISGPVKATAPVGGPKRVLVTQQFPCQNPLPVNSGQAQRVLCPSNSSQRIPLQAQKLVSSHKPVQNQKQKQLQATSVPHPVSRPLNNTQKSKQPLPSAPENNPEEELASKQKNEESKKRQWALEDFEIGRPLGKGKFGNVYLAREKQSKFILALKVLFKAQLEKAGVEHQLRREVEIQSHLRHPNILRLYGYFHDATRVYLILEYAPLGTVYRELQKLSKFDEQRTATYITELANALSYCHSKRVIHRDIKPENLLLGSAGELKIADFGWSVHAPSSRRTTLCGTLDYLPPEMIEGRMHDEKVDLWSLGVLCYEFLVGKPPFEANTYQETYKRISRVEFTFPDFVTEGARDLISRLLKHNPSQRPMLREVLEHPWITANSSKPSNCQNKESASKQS
# Chain of UniProt Q13554 (whole entry, looked up): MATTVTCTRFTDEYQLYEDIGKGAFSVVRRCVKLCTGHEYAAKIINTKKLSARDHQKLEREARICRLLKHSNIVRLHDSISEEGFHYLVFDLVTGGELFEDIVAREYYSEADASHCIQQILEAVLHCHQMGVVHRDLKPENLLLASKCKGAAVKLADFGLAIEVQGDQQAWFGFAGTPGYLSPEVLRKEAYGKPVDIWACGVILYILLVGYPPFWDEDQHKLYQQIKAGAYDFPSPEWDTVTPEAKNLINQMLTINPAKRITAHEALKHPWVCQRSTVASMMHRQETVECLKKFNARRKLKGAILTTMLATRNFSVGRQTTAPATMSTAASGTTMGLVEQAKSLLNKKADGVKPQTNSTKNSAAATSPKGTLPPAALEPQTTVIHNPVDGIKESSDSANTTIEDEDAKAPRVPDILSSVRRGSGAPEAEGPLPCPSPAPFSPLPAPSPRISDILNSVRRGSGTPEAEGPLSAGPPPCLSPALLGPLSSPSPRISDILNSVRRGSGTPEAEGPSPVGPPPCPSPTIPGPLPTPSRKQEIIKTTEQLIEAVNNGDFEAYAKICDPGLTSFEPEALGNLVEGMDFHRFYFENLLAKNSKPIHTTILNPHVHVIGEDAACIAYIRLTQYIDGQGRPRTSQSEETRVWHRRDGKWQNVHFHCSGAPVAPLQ
# Chain of UniProt P42684 (whole entry, looked up): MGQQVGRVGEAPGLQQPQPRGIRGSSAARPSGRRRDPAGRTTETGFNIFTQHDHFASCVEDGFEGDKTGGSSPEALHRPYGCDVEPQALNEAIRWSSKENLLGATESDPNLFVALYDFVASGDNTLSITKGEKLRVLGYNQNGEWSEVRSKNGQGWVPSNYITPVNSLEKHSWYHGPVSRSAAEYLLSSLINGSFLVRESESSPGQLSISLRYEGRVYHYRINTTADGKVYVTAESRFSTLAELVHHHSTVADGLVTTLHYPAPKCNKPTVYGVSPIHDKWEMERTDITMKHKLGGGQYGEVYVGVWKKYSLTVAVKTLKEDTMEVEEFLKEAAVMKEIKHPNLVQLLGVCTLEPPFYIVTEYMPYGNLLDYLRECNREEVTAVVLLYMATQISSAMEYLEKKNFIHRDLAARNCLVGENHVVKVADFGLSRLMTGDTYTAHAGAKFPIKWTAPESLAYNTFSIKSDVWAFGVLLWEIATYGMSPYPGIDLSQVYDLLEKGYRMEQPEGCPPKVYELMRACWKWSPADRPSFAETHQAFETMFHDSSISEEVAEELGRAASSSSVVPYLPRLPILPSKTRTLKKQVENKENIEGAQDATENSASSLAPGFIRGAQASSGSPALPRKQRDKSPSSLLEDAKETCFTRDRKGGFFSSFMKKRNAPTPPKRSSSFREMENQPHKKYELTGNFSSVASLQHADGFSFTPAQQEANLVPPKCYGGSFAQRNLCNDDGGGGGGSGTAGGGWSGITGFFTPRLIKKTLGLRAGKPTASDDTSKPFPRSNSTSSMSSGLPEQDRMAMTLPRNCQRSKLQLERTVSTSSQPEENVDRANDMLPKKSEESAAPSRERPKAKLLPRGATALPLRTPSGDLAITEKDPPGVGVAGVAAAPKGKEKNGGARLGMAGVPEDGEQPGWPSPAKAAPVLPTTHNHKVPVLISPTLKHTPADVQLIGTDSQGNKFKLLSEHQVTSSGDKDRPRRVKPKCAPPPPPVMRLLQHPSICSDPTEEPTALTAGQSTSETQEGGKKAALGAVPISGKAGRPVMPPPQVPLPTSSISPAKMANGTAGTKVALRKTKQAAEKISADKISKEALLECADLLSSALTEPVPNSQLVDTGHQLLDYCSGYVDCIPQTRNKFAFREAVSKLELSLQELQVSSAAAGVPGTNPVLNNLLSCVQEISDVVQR
# Chain of UniProt P19525 (whole entry, looked up): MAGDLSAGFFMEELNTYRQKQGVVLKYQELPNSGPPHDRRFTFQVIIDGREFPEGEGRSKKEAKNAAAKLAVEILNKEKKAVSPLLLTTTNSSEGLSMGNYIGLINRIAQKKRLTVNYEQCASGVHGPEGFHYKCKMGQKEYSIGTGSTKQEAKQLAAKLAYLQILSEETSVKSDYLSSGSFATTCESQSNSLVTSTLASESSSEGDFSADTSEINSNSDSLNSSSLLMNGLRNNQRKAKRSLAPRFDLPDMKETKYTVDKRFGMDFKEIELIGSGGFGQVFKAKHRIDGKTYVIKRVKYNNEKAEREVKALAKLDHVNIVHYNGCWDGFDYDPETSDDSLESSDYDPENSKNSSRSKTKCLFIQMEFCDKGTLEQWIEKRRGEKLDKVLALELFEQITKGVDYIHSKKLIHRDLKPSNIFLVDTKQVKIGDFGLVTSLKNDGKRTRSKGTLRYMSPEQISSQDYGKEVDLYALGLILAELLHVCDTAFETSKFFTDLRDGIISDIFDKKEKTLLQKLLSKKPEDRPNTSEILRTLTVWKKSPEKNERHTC
# Chain of UniProt O95782 (whole entry, looked up): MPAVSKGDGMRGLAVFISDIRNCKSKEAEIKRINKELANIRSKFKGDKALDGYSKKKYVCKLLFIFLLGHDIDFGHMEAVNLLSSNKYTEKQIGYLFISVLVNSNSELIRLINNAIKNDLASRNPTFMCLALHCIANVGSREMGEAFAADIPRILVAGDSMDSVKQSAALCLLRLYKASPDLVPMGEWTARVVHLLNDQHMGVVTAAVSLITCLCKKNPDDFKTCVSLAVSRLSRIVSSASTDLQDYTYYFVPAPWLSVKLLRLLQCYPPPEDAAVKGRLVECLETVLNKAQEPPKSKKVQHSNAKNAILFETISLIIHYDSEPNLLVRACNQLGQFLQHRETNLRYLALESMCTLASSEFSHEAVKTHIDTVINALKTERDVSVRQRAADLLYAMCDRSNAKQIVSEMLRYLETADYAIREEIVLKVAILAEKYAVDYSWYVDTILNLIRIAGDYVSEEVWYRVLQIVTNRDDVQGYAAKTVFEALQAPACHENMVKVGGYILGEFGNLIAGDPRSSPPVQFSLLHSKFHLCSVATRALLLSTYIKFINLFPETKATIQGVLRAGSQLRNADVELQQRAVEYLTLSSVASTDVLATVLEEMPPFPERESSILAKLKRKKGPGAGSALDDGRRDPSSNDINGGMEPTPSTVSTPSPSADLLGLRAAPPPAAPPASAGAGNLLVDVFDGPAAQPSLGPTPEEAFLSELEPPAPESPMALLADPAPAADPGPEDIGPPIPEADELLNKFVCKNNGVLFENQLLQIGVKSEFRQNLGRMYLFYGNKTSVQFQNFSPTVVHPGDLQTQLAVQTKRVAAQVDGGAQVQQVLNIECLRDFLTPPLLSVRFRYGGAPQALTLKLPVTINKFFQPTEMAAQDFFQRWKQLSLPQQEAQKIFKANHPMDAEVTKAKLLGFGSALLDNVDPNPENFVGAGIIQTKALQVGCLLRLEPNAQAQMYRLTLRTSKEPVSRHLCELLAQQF
# Chain of UniProt P49840 (whole entry, looked up): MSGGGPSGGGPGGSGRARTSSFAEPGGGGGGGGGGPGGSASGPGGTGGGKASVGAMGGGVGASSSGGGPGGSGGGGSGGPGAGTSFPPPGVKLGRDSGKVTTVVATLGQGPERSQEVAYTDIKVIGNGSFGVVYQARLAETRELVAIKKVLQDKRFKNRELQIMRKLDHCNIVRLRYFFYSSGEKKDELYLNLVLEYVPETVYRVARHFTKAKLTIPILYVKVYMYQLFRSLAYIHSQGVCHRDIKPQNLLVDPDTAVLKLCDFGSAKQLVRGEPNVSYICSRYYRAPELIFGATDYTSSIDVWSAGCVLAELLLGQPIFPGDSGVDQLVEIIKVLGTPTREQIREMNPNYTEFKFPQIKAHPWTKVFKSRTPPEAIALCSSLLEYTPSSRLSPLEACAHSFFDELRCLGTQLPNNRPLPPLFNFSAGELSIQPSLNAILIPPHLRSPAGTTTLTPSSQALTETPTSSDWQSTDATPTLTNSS

# Set 1
# Target: Tyrosine-protein kinase Fyn (FYN, Homo sapiens, UniProt P06241)
# Chain of UniProt P06241 (whole entry, looked up): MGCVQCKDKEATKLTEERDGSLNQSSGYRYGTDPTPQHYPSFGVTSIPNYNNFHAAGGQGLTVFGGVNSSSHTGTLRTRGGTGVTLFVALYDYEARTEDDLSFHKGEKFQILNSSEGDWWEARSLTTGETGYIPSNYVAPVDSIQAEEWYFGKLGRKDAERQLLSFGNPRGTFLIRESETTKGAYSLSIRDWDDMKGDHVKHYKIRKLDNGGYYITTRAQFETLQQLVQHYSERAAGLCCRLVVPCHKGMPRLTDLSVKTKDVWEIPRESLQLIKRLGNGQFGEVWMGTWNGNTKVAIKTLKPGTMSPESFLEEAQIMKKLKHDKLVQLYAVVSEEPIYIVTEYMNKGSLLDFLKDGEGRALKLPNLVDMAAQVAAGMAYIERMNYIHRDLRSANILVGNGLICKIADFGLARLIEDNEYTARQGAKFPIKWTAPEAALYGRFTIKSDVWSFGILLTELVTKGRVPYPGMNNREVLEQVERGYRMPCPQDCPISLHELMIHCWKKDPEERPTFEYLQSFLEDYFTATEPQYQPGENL
# Read-out: enzyme activity
# Mode: inhibitor
# Tested at: 0.5 µM
# Relative to: control
SMILES,remaining activity [%]
C[C@@H](N)[C@H]1CC[C@H](C(=O)Nc2ccncc2)CC1,91.7
CC(C)(C)c1nc2c3cc[nH]c(=O)c3c3cc(F)ccc3c2[nH]1,52.3
O=C(c1ccccc1)c1ccc(N2CCOCC2)cc1O,106
O=c1c(-c2ccc(F)cc2)c(-c2ccncc2)[nH]n1-c1ccc(Cl)cc1,94.8
O=C1c2ccccc2-c2nc3nnnn3nc21,76.2

# Set 2
# SMILES: NCc1ccc(Nc2ncc(F)c(Nc3ccccc3)n2)cc1
target,assay,system,pIC50
"TGFBR1 (Homo sapiens, UniProt P36897)",,,< 5.00
Trypanosoma brucei kinase GI 71749328,"binding, kinobead competition",Trypanosoma brucei lysate,< 5.00
"PIP4K2B (Homo sapiens, UniProt P78356)",,,< 5.00
"AP-2 complex subunit alpha-1 (Homo sapiens, UniProt O95782)",,,< 5.00
Trypanosoma brucei kinase Tb427tmp.01.3110,"binding, kinobead competition",Trypanosoma brucei lysate,< 5.00
"GSK3A (Homo sapiens, UniProt P49840)",kinobead competition,MRC5 cell lysate,< 5.00

# Set 3
# Target: RING finger protein unkempt homolog, zinc fingers 1-6, GST-SBP tag (UNK, Homo sapiens, UniProt Q9C0B0, residues 30-357)
# Method: RNA Bind-n-Seq
# Molecule type: RNA
# Matrix: in vitro
# Tested at: not given
# Notes: RNA with constant flanks, human and mouse sites, ends assumed
# Relative to: input RNA pool
# Direction: higher = stronger binding
# Residues (chain): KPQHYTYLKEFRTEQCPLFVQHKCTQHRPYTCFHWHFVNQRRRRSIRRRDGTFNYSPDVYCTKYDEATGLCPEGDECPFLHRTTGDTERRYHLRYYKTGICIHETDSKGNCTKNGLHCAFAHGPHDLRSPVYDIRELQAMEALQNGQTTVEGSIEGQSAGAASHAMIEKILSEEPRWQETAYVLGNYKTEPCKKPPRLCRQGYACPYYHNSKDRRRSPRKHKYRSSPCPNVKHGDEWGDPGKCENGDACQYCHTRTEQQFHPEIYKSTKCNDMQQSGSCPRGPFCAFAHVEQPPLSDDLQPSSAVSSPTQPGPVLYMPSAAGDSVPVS
Sequence,bound/input enrichment
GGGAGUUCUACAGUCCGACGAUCUCGAGGCUAGACCAUCAUGGGACAGACACACAGAGACACUUUGCCACAUCUGAUACAGCUGUGAACAAGCUUCUGCCCCAAGUUCUUCAGGGCAGCUGUGAAACCAGCUGGACAAGGGAACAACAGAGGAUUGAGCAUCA,0.135 ratio
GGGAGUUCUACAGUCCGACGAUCAAGCCAGAGACAGAGGCUGCAAGAGCACAGCCCACUCCUUCCUCAUCAGCCACACAGAGCAAGCCCACACCAGUUAAGCCAAACUAUGCCCUGAAGUUCACCCUGGCUGGCCACACCAAACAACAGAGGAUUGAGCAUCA,0.221 ratio
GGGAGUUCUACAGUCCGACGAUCGAUAGAUUGACGUGUAGAGACUGUCAACUUUUGGAGCACAAAGAACAUAGGUAUCAGUUUUUAGAAGAGGCUUUUCAAAAUCAGAAAGGUGCAAUUGAAAAUCUGUUGGCUAAGCUUCUUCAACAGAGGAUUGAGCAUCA,0.915 ratio
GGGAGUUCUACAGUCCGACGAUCAAAUAUGACUCAAGUGUGAGUGGUCAAUCAUCUUUUGUGACAUCCCCAGCAGCAGACAACAUAGAAAUGCUUCCUCAUUAUGAGCCAAUUCCAUUCAGUUCUUCUAUGAAUGAAUCUGCUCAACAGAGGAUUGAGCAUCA,0.248 ratio
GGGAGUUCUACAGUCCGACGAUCAAGUGGGGUGACGAGGUGGAGUACAUGUUGGUGUCCUUCGAUCAUGAAAAUAGGAAAGUCCAGUUGUUACUGAAUGGAGGCGAUGUUCUUGAGACUCUGCAGGAGAAGGGGGAGAGGACACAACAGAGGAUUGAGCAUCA,0.772 ratio
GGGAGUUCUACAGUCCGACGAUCCUGAUUUGUUUUGUGAUUUUUAACUUAUGAGGCAAGAAAGGUCUUCCUUCAAUAUUGUCUCUUAGGGAAUCUCUCUCUCAGUGUUUGAACUUAACUUGUGCUUGAAAUUCUACAGUUUCACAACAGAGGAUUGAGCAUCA,0.0942 ratio
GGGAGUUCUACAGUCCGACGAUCAACACCAACACAGCAAUCGAGCUGAAACUAGUUCGUUUUCCUGAAGAUCUUGAGAAUGACAUUAGAACUUUCUUUCCUGAAUAUACCCAUCAGCUCUUUGGGGAUGAUGAAACUGCUUUCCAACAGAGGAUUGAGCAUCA,0.129 ratio
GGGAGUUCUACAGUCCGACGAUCCUGUAAUUUCAAUUUUUUUUUUUUGCUGAAAUACAUUAUAUUGUACGUUUGAGAUAAUUCUAGUACAAAGUAUAAUAAAACUAGAUGUAUAAUAAACCCUUUAAAUCAUUGGUAAGUGUACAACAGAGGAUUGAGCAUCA,1.28 ratio

# Set 4
# SMILES: C[C@@]1(Cc2ccc(C#N)cc2)C(=O)N(c2cc(Cl)cc(Cl)c2)c2ncc(C(=O)NC3(c4nc(C5CCC5)no4)CC3)n21
# Tested at: 1 µM
target,assay,remaining binding [%]
"HIPK3 (Homo sapiens, UniProt Q9H422)","cell-free assay, competition with immobilised ligand",100
"CAMK2D (Homo sapiens, UniProt Q13557)","cell-free assay, competition with immobilised ligand",100
"CAMK2B (Homo sapiens, UniProt Q13554)","cell-free assay, competition with immobilised ligand",90
"CDK2 (Homo sapiens, UniProt P24941)","cell-free assay, competition with immobilised ligand",100
"ABL2 (Homo sapiens, UniProt P42684)","cell-free assay, competition with immobilised ligand",78
"IRAK3 (Homo sapiens, UniProt Q9Y616)","cell-free assay, competition with immobilised ligand",100
"EIF2AK2 (Homo sapiens, UniProt P19525)","cell-free assay, competition with immobilised ligand",56
"EPHA1 (Homo sapiens, UniProt P21709)","cell-free assay, competition with immobilised ligand",100
"CDK15 (Homo sapiens, UniProt Q96Q40)","cell-free assay, competition with immobilised ligand",97
"PAK1 (Homo sapiens, UniProt Q13153)","cell-free assay, competition with immobilised ligand",99
"EGFR (Homo sapiens, UniProt P00533, A750P/del747-749)","cell-free assay, competition with immobilised ligand",100
"SGK2 (Homo sapiens, UniProt Q9HBY8)","cell-free assay, competition with immobilised ligand",100
"Aurora kinase A (AURKA, Homo sapiens, UniProt O14965)","cell-free assay, competition with immobilised ligand",92
"SIK1 (Homo sapiens, UniProt P57059)",competition binding,100
"FLT3 (Homo sapiens, UniProt P36888, ITD)","cell-free assay, competition with immobilised ligand",100
"EPHB2 (Homo sapiens, UniProt P29323)","cell-free assay, competition with immobilised ligand",94
"MAPKAPK2 (Homo sapiens, UniProt P49137)","cell-free assay, competition with immobilised ligand",100

# Mixed results
SMILES,assay,system,setting,scale,measurement,value
CC(C)n1cnc(-c2ccc(F)cc2)c1-c1ncc(C(=O)Nc2ccc(N3CCN(C)CC3)cc2)[nH]1,,"human, idiopathic pulmonary fibrosis","30 mg once daily, trial, treatment-emergent",,patients with ECG T wave abnormal,0%
CC(=O)N[C@@H](Cc1c[nH]c2ccccc12)C(=O)N[C@@H](CCC(=O)C=[N+]=[N-])C(=O)OC(C)C,UPLC-MS/MS,"EL4 tumor, C57BL/6 CES1-/- mice, tumor","subcutaneous, 0.3 mg/kg DON equivalent daily, 5 days",higher = more metabolite,pyridoxal level,9.72e+06 a.u. and 1.12e+07 a.u. and 5.7e+06 a.u. and 8.36e+06 a.u. and 6.74e+06 a.u. and 7.29e+06 a.u.

# Some of these lines once more (set 3):
Sequence,bound/input enrichment
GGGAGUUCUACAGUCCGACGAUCGAUAGAUUGACGUGUAGAGACUGUCAACUUUUGGAGCACAAAGAACAUAGGUAUCAGUUUUUAGAAGAGGCUUUUCAAAAUCAGAAAGGUGCAAUUGAAAAUCUGUUGGCUAAGCUUCUUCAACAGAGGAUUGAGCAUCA,0.915 ratio
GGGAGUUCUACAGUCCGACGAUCCUGAUUUGUUUUGUGAUUUUUAACUUAUGAGGCAAGAAAGGUCUUCCUUCAAUAUUGUCUCUUAGGGAAUCUCUCUCUCAGUGUUUGAACUUAACUUGUGCUUGAAAUUCUACAGUUUCACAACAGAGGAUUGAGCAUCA,0.0942 ratio
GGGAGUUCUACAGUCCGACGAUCAAGCCAGAGACAGAGGCUGCAAGAGCACAGCCCACUCCUUCCUCAUCAGCCACACAGAGCAAGCCCACACCAGUUAAGCCAAACUAUGCCCUGAAGUUCACCCUGGCUGGCCACACCAAACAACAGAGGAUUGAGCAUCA,0.221 ratio
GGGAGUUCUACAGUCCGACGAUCAAGUGGGGUGACGAGGUGGAGUACAUGUUGGUGUCCUUCGAUCAUGAAAAUAGGAAAGUCCAGUUGUUACUGAAUGGAGGCGAUGUUCUUGAGACUCUGCAGGAGAAGGGGGAGAGGACACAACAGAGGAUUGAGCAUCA,0.772 ratio
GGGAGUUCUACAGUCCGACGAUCAAAUAUGACUCAAGUGUGAGUGGUCAAUCAUCUUUUGUGACAUCCCCAGCAGCAGACAACAUAGAAAUGCUUCCUCAUUAUGAGCCAAUUCCAUUCAGUUCUUCUAUGAAUGAAUCUGCUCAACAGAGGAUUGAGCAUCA,0.248 ratio
